Measured values of several laboratories.
Lines come from different studies, so protocols differ. Numbers after ± are the reported error.

`Cc1csc(NC(=O)CN2CCC(O)CC2)n1` — result for “inhibition in vivo”: 59% (paw oedema; mouse; intraperitoneal, 200 µmol/kg).
`O=c1[nH]c(=S)[nH]c2c1C(c1cc(/N=N/c3ccc(Br)cc3)ccc1O)c1c([nH]c(=S)[nH]c1=O)N2` gave an oedema inhibition of 54% (rat, carrageenan paw oedema; oral, 50 mg/kg, 3 h).
`COc1cc(/N=N/c2ccc([N+](=O)[O-])cc2)ccc1N(CCS(=O)(=O)O)CCS(=O)(=O)O` — result for “UV-vis absorption change”: “no effect” (Cu2+ binding; aqueous HEPES buffer; concentration not given, pH 7.0, together with: Cu2+ up to 0.5 mM).
`N[C@@H](Cc1c[nH]c2ccccc12)C(=O)N1CCC[C@H]1C(=O)NCC(=O)NCC(=O)O` — result for “ΔS‡ at 298.15 K”: 1 ± 1 J/(mol·K) (diketopiperazine formation, transition state theory; 1-propanol; 70, 80, 90 °C, 0.5% acetic acid).
`CC(=O)N[C@H](CSSC[C@H](N)C(=O)O)C(=O)N[C@H](C)C(=O)N[C@H](CCCNC(=N)N)C(=O)N[C@H](CCCNC(=N)N)C(=O)N[C@H](CCCNC(=N)N)C(=O)N[C@H](C)C(=O)N[C@H](CCCNC(=N)N)C(N)=O` — result for “plasma ionized calcium change”: “no effect” (healthy male human; intravenous, 0.5 mg single).
The IL-12 level of `CC(=O)Nc1ccc(OC(=O)CCC(=O)[O][Pt-2]23([O]C(=O)CCC(=O)Oc4ccc(NC(C)=O)cc4)([NH2+][C@@H]4CCCC[C@H]4[NH2+]2)[O]C(=O)C(=O)[O]3)cc1` is reported as 2.5 fold (BALB/c mouse, 4T1 tumour, tumour tissue; dose not given; baseline: PBS).
`CC[C@H](C)[C@H](NC(=O)[C@H](CC(N)=O)NC(=O)[C@H](CC(N)=O)NC(=O)[C@H](CCCNC(=N)N)NC(=O)[C@H](CC(N)=O)NC(=O)[C@H](CCCNC(=N)N)NC(=O)[C@H](CCCCN)NC(=O)[C@@H](NC(=O)[C@H](CC(N)=O)NC(=O)[C@H](CCSC)NC(=O)[C@H](CC(C)C)NC(=O)[C@H](Cc1c[nH]c2ccccc12)NC(=O)[C@H](CCC(N)=O)NC(=O)[C@@H](NC(=O)[C@H](Cc1ccccc1)NC(=O)[C@H](CC(=O)O)NC(=O)[C@H](CCC(N)=O)NC(=O)[C@H](C)NC(=O)[C@H](CCCNC(=N)N)NC(=O)[C@H](CCCNC(=N)N)NC(=O)[C@H](CO)NC(=O)[C@H](CC(=O)O)NC(=O)[C@H](CC(C)C)NC(=O)[C@H](Cc1ccc(O)cc1)NC(=O)[C@H](CCCCN)NC(=O)[C@H](CO)NC(=O)[C@H](Cc1ccc(O)cc1)NC(=O)[C@H](CC(=O)O)NC(=O)[C@H](CO)NC(=O)[C@@H](NC(=O)[C@H](Cc1ccccc1)NC(=O)[C@@H](NC(=O)CNC(=O)[C@H](CCC(=O)O)NC(=O)[C@@H](CO)NC(=O)[C@@H](N)Cc1c[nH]cn1)[C@@H](C)O)[C@@H](C)O)C(C)C)[C@@H](C)O)C(=O)N[C@@H](C)C(=O)N[C@@H](CSCC(=O)NCCOCCOCCOCCOCCC(=O)O[C@H]1CC[C@@]2(C)C(=CC[C@H]3[C@@H]4CC[C@H]([C@H](C)CCCC(C)C)[C@@]4(C)CC[C@@H]32)C1)C(N)=O`: weight loss “inhibited” (lean Glp1r knockout mice; subcutaneous, 1.9 µmol/kg daily, 5 days; baseline: wild-type mice).
`COCCOCCOCCC(=O)Oc1ccc(CC(=O)N/C=C/c2ccc(C(F)(F)F)cc2)cc1OC`: “phase II nociception decrease” 54% (C57BL/6 mouse, male and female; intraplantar, 45 µg, together with: 2% formalin 120 min later).
For `COc1cc2c(cc1OC)-c1cc3ccc(OC)c(OC)c3c[n+]1CC2`, the HDL cholesterol was 35.4 ± 1.71 mg/dL (rat, STZ-induced diabetic, serum; oral, 12 mg/kg, day 28).
Under “log2 fold change”, `C=C(c1ncc(C(=O)O)cn1)c1cc2c(cc1C)C(C)(C)CCC2(C)C` is recorded as -0.65 (RNA sequencing, item: Arl11 mRNA; rat, brain; dose not given, 24 h, single dose; baseline: vehicle).
For `COc1ccc(C2CC(c3ccc(C)cc3)=Nc3ccccc3S2)cc1` (centres unmarked), the HDL cholesterol was 47.5 ± 2.22 mg/dL (Wistar rat, STZ-induced diabetes, serum; 10 mg/kg, 28 days).
Under “lowest effective dose”, `O=c1[nH]c2ccccc2n1CCCCCN1CCN(c2ccc(F)cc2)CC1` is recorded as 0.1 mg/kg (writhing decrease; mouse; subcutaneous, together with: acetic acid).
`CC[C@H]1[C@@H](O)[C@@H]2[C@H](CC[C@]3(C)[C@@H]([C@H](C)CCOS(=O)(=O)[O-])CC[C@@H]23)[C@@]2(C)CC[C@@H](O)C[C@@H]12.[Na+]` gave a liver weight of 9.4 ± 0.2% (ob/ob NASH mouse model; oral, 3 mg/kg once daily, 8 weeks; baseline: body weight).
`COc1ccc2c(c1)c(CC(=O)OCC(=O)OC(C)(C)C)c(C)n2C(=O)c1ccc(Cl)cc1` — result for “latency of nociceptive response”: 10.8 ± 1.08 s (hot plate test; BALB/c mice; 100 mg/kg, 0 min).
For `N=C(N)NCCC[C@H](N)C(=O)N1CCC[C@H]1C(=O)NCC(=O)NCC(=O)O`, “enthalpy of activation” read 22.9 ± 1.91 kcal/mol (diketopiperazine formation, transition state theory; 1-propanol; concentration not given, 70, 80, 90 °C, 0.5% acetic acid).
`O=C1CCN(Cc2ccccc2)CC1C(C[N+](=O)[O-])c1ccccc1` (centres unmarked): “tail flick response” 15.2% (tail immersion test; BALB/c mice; ip, 25 mg/kg, 0.25 h).
For `CC12CC(O)C3CC1(OC1OC(CO)C(O)C(O)C1O)C3(COC(=O)c1ccccc1)C(=O)O2` (centres unmarked), sucrose preference read “increased” (rats, chronic stress depression model; oral, 14 mg/kg, 14 days; baseline: depression group).
`COc1ccc(C2CC(c3ccc(C)cc3)=Nc3ccccc3S2)cc1OC` (centres unmarked) has a blood glucose of 115 ± 4.61 mg/dL (rat, normal, overnight fasted; oral, 20 mg/kg, 30 min, oral glucose tolerance test, together with: glucose 3 g/kg oral).
Under “enthalpy of activation”, `N[C@@H](CO)C(=O)N1CCC[C@H]1C(=O)NCC(=O)NCC(=O)O` is recorded as 17.2 ± 1.2 kcal/mol (diketopiperazine formation, transition state theory; 1-propanol; concentration not given, 70, 80, 90 °C, 0.5% acetic acid).
`CC(=O)N/C(N)=N/C(=N\S(=O)(=O)c1ccc(C(F)(F)F)cc1)N1C[C@H](c2ccccc2)C(c2ccc(Cl)cc2)=N1`: 2-deoxyglucose uptake “no effect” (hyperinsulinaemic euglycaemic clamp; diet-induced obese β-arrestin-2 knockout mice, soleus muscle; 1 mg/kg, obesity-induced impairment).
`CCCc1nc2cc(C(=O)N3CCC4(CC3)CC(=O)c3cc5c(cc3O4)OC(C)(C)CC5)cc(C)c2[nH]1`: mRNA level “inhibited” (item: lipogenesis genes; C57BL/6J male mouse, HFD-induced NASH, liver; dose not given; baseline: vehicle).
For `CCCC[C@H](NC(=O)[C@H](C)NC(=O)[C@H](CO)NC(=O)[C@H](CC(C)C)NC(=O)[C@H](CCCCN)NC(=O)[C@]1(C)CCCC=CCCCCCC[C@@](C)(NC(=O)[C@H](CCC(=O)O)NC(=O)[C@H](CC(C)C)NC(=O)[C@]2(C)CCCC=CCCCCCC[C@@](C)(NC(=O)[C@H](CC(C)C)NC(=O)[C@H](CS)NC(=O)[C@H](CCC(N)=O)NC(=O)[C@H](C)NC(=O)[C@H](CCCNC(=N)N)NC(C)=O)C(=O)N[C@@H](CCC(N)=O)C(=O)N[C@@H](CCCNC(=N)N)C(=O)N[C@@H](CCC(=O)O)C(=O)N[C@@H](CCCC)C(=O)N[C@@H](C(C)C)C(=O)N[C@@H](CCC(N)=O)C(=O)N2)C(=O)N[C@@H](CCC(N)=O)C(=O)N[C@@H](CC(C)C)C(=O)N[C@@H](C(C)C)C(=O)N[C@@H](CC(C)C)C(=O)N[C@@H](CCC(=O)O)C(=O)N[C@@H](CCCCN)C(=O)N1)C(=O)N[C@@H](CCC(N)=O)C(=O)N[C@@H](C)C(=O)N[C@@H](Cc1c[nH]cn1)C(N)=O`, “Tcon cell proliferation” read 79.1% (Treg-mediated suppression, flow cytometry; Treg and Tcon cells, mouse; dose not given, 3 d, Treg:Tcon 1:1).
The oedema reduction of `FC(F)(F)c1ccccc1/N=c1\oc2ccccc2cc1-c1ccccc1` is reported as 30.3 ± 1.6% (rat, formalin paw oedema; intraperitoneal, 10 mg/kg, 2 h).

A few entries again:
`Cc1csc(NC(=O)CN2CCC(O)CC2)n1` — result for “inhibition in vivo”: 59% (paw oedema; mouse; intraperitoneal, 200 µmol/kg).
